Measured values of several laboratories.
Each line is one published result; not all experiments were run side by side. Several values in a cell are separate wells, animals, samples, runs or records. Numbers after ± are the reported error.

Cc1cc(Br)cc2oc(C(=O)NS(=O)(=O)c3ccccc3-c3ccccc3)cc12 — IC50 (estrogen receptor alpha, human; reporter gene; MCF7-MVLN; 24 h): > 20 µM
COc1cc(-c2cc(-c3ccc(N4CCNCC4)cc3)cnc2C)cc(OC)c1OC — inhibition (human CK1; enzyme activity, inhibitor; 0.1 µM): 2%
O=C(O)CCCOc1cccc(CNC(=O)C#Cc2cn(Cc3ccc(C(=O)O)cc3)c(=O)[nH]c2=O)c1 — remaining MMP-3 activity (MMP-3; inhibitor, FRET; 10 µM): 102 ± 1%
Cc1ccc(N2CC(C(N)=O)CC2=O)cc1 (stereo not shown) — fold enrichment (human THEMIS domain; binding, affinity selection mass spectrometry; reference: other proteins in batch): 1
C/C(=C\c1csc(C)n1)[C@@H]1C/C=C2\CCC[C@H](C)[C@H](O)[C@@H](C)C(=O)[C@](C)(CC=CCOC2)[C@@H](O)CC(=O)O1 — EC50 (tubulin; tubulin assembly, stimulator; cell-free): 1.62 ± 0.13 µM
O=C1NC(=O)[C@](CNC(=O)c2cnn(Cc3nccs3)n2)(C2CC2)N1 — selectivity ratio (ADAMTS7 and MMP12; enzyme activity, inhibitor; reference: ADAMTS7 IC50 over MMP12 IC50): 4.5
CC1CCCN(C(=O)c2cc3ncccn3n2)C1 (stereo not shown) — fold enrichment (human THEMIS domain; binding, affinity selection mass spectrometry; reference: other proteins in batch): 0.781
[Ca+2] — desensitization time constant (human TRPA1; ion current, two-electrode voltage clamp; Xenopus oocytes; -80 mV, with: AITC): 5.54 s and 1.6 s and 16 s and 7.55 s and 27.2 s
CCCCCCCCCCCCC/C=C/[C@@H](O)[C@@H](N)COP(=O)(O)O — log2 fold change (binding, MIDAS equilibrium dialysis LC-MS; A2AR-BRIL thermostabilized; concentration not given; reference: no-protein control): -0.186
CC[S+]([O-])c1nc(-c2ccccc2)cc(C(F)(F)F)n1 (stereo not shown) — cells with nuclear reporter (transportin-1/2; FUS nuclear import, high content imaging; HeLa Kyoto reporter; 0.158 µM, 2 h): 93.1% and 92.7%
C=C(F)C(=O)N1CCN(c2nc(OC[C@@H]3CCCN3C)nc3c2CCN(c2cccc4cccc(Cl)c24)C3)C[C@@H]1CC#N — inhibition (NRAS wild type (human); SOS-mediated nucleotide exchange, inhibitor; concentration not given): inactive
COc1ccc(C(=O)c2cc3c(-c4ccccc4)c(O)ccc3o2)cc1 — relative potency (tubulin; tubulin polymerization, inhibitor, turbidimetry; reference: -label): 2 fold
CCS(=O)(=O)c1nc(C2CC2)cc(C(F)(F)F)n1 — cells with nuclear reporter (transportin-1/2; FUS nuclear import, high content imaging; HeLa Kyoto reporter; 50 µM, 2 h): 94.4% and 98.7%
COc1cc(C)c2cc(C(=O)NS(=O)(=O)c3ccccc3-c3ccccc3)oc2c1 — IC50 (estrogen receptor alpha, human; reporter gene; MCF7-MVLN; 24 h): > 4.6 µM
O=c1[nH]cnc2c1ncn2[C@@H]1O[C@H](CO)[C@@H](O)[C@H]1O — log2 fold change (binding, MIDAS equilibrium dialysis LC-MS; A2AR-BRIL thermostabilized; concentration not given; reference: no-protein control): -0.146
O=C(C#Cc1cn(Cc2ccccc2)c(=O)[nH]c1=O)NCc1ccccc1 — remaining MMP-7 activity (MMP-7; inhibitor, colorimetric; 20 µM): 102 ± 3%
CC(=O)NCCCC[C@H](NC(=O)[C@H](CC(=O)O)NC(=O)[C@H](CO)NC(C)=O)C(=O)Nc1ccc2c(C)cc(=O)oc2c1 — kcat (human Y386F mutant enzyme; substrate, fluorogenic): 0.06 ± 0.02 s⁻¹
CC(=O)N[C@H](C(=O)N1C[C@H](O)C[C@H]1C(=O)NCc1ccc(-c2scnc2C)cc1)C(C)(C)SCCCCCCNC(=O)C[C@@H]1N=C(c2ccc(Cl)cc2)c2c(sc(C)c2C)-n2c(C)nnc21 — relative protein abundance (plectin (human); TMT proteomics; HeLa; 1 µM, 24 h; reference: DMSO): 1.03
O=C(Nc1ccn(Cc2ccc(O)cc2C(F)(F)F)n1)c1c(F)cccc1F — IC50 (human GABA-A receptor; receptor activity, antagonist): > 10 µM

Repeated from above:
[Ca+2] — desensitization time constant (human TRPA1; ion current, two-electrode voltage clamp; Xenopus oocytes; -80 mV, with: AITC): 5.54 s and 1.6 s and 16 s and 7.55 s and 27.2 s
